Measured values of several laboratories.
Each line is one published result; not all experiments were run side by side. Numbers after ± are the reported error.
SLC10A2: Ileal sodium/bile acid cotransporter (SLC10A2, Homo sapiens, UniProt Q12908)
ESR1: Estrogen receptor (ESR1, Homo sapiens, UniProt P03372)
ADORA1: Adenosine receptor A1 (ADORA1, Homo sapiens, UniProt P30542)
ABO G235S/G268A/L266M/R176G: Histo-blood group ABO system transferase (ABO, Homo sapiens, UniProt P16442, G235S/G268A/L266M/R176G)
T1: pre-miR-21 RNA, A bulge to A-U pair (Homo sapiens); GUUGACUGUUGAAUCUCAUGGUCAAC
T2: DNA aptamer; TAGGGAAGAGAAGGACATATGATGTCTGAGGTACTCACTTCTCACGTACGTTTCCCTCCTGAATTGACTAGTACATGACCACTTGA

SMILES | target | assay | system | setting | how to read | measurement | result
CC1(CCCN2CCN(c3ccccn3)CC2)Cc2cc(Cl)ccc2C1=O (centres unmarked) | HTR7 (Homo sapiens, UniProt P34969) | binding, radioligand binding | HEK293 transfected, membranes | together with: [3H]5-HT |  | Hill slope | -0.59 ± 0.05
CCCNCC(=O)O | Albumin (ALB, Homo sapiens, UniProt P02768) | circular dichroism |  | 0.6 mM |  | α-helix content | 44.9%
CNc1nc(C#Cc2ccc(Cl)s2)nc2c1ncn2[C@@H]1O[C@H](CO)[C@@H](O)[C@H]1O | ADORA3 (Homo sapiens, UniProt P0DMS8) | kinetic radioligand binding |  | no GTP, together with: [3H]PSB-11 |  | residence time | 125 ± 14 min
CN1CCN(c2ccc(-c3ccc4[nH]c(-c5ccc(OCCCC(=O)N6CCN(c7nncc8sccc78)CC6)cc5)nc4c3)cc2)CC1 | T1, pre-miR-21 RNA, A bulge to A-U pair (Homo sapiens) | microscale thermophoresis |  |  |  | Kd | > 10 µM
CC(CCC(=O)NC(CCC(=O)Nc1ccccc1O)C(=O)O)C1CCC2C3C(O)CC4CC(O)CCC4(C)C3CCC12C (centres unmarked) | SLC10A2 | transport efficiency, substrate, LC-MS/MS | ASBT-MDCK |  |  | normalized Jmax/Kt | 0.262 µM⁻¹
O=C(CSC(=S)N1CCCCCC1)Nc1cccc2c1C(=O)c1ccccc1C2=O | FYN (Homo sapiens, UniProt P06241) | RTK phosphorylation antibody array | A549 | concentration not given | relative to: control | phosphorylation decrease | 2.8 fold
O=C1c2ccc(O)cc2OC(Oc2ccc(-c3coc4cc(O)ccc4c3=O)cc2)C1(O)c1ccc(O)cc1 (centres unmarked) | PRXC1A (Armoracia rusticana, UniProt P00433) | oxidation, substrate |  |  |  | Km | 405 ± 5.8 µM
CCc1nc2cc3ccccc3cc2cc1C(=O)N1CCC[C@H]1C(=O)N[C@@H](CCC/C=C/CCC[C@H](NC(=O)[C@@H]1CCCN1C(=O)c1cc2cc3ccccc3cc2nc1CC)C(=O)N[C@@H](CCCCN)C(=O)NCCCN)C(=O)N[C@@H](CCCCN)C(=O)NCCCN | (CCUG)10 RNA | SPR |  |  |  | residence time | 0.833 min
CCN(CC)CCOc1ccc(C(=C(C)c2ccc(Cl)cc2)c2ccc(Cl)cc2)cc1 | ESR1 | reporter gene, agonist, yeast estrogen screen |  | 1 µM | relative to: DMSO | fold activation | 1.8 ± 1.05 fold
CC1=C(/C=C/C(C)=C/C=C/C(C)=C/C=O)C(C)(C)CCC1 | CNGA1 (Bos taurus, UniProt Q00194) | channel binding, allosteric model fit |  |  |  | association constant K3 | 2.8e+10 M^-n
CCNC(=O)[C@H]1O[C@@H](n2cnc3c(NCCCCCNC(=O)CCCCCNC(=O)COc4ccc(/C=C/C5=[N+]6C(=Cc7ccc(-c8cccs8)n7[B-]6(F)F)C=C5)cc4)ncnc32)[C@H](O)[C@@H]1O | ADORA1 | CRE reporter gene, agonist | CHO-A1 | PTX 100 ng/mL overnight, together with: forskolin 3 µM | relative to: forskolin alone | maximal Gs response | 1.41 ± 0.06 fold increase
CC(=O)[C@@H]1CCCN1C(=O)[C@@H]1CCCN1C(=O)[C@H](Cc1ccccc1)N(C)C(=O)[C@H](C(C)C)N(C)C(=O)OC(C)(C)C | BCL2 (Homo sapiens, UniProt P10415) | cellular thermal shift | DU-145 |  | highest temperature with stabilization | stabilization temperature limit | ≤ 46 °C
C[C@@H]1O[C@@H](O[C@@H]2C(=O)c3c(O)cc(O)cc3O[C@@H]2c2ccc(O)cc2)[C@H](O)[C@H](O)[C@H]1O | PTPN1 (Homo sapiens, UniProt P18031) | Lineweaver-Burk and Dixon plots |  |  |  | Ki (enzyme-substrate complex) | 9.55 µM
CCC(=C(c1ccc(O)cc1)c1ccc(OCCN(C)CCOCCOCCOCCOCCOCCOCCOCCOCCOCCOCCOCCN(C)CCOc2ccc(C(=C(CC)c3ccccc3)c3ccc(O)cc3)cc2)cc1)c1ccccc1 (mixture of isomers) | ESR1 |  |  | concentration not given, Z-Z:Z-E:E-E 1:2:1, together with: [3H]-estradiol | relative to: estradiol | relative binding affinity | 21.8 ± 3.1%
N=C(N)NCCC[C@H](NC(=O)[C@H](CC(=O)O)NC(=O)[C@@H]1CSCCCC(=O)NCC(=O)N[C@@H](Cc2c[nH]cn2)C(=O)N[C@H](Cc2ccccc2)C(=O)N[C@@H](CCCNC(=N)N)C(=O)N[C@H](Cc2c[nH]c3ccccc23)C(=O)N1)C(=O)N[C@@H](Cc1ccccc1)C(=O)NCC(N)=O | MC3R (Homo sapiens, UniProt P41968) | cAMP accumulation, agonist | HEK293 expressing MC3R | 10 µM | relative to: MT-II | activation | 75%
CN1CCN(CC(=O)N2N=C3/C(=C/c4ccccc4)CCCC3C2c2ccccc2)CC1 (mixture of isomers) | ALOX5 (Homo sapiens, UniProt P09917) | activator |  | 20 µM, together with: arachidonic acid | relative to: activator 0 µM | enzyme activity | 91.3%

SMILES | target | assay | system | setting | how to read | measurement | result
O=c1[nH]cnc2c(CN3C[C@H](O)[C@@H](O)C3)c[nH]c12 | PNP (Homo sapiens, UniProt P00491) | isothermal titration calorimetry |  | concentration not given, pH 7.4, 27 °C, first subunit, together with: 50 mM phosphate |  | binding enthalpy | -8.6 ± 1 kcal/mol
C[C@H](CCC(=O)N[C@@H](CCC(=O)Nc1cncc(Br)c1)C(=O)O)[C@H]1CC[C@H]2[C@@H]3[C@H](O)C[C@@H]4C[C@H](O)CC[C@]4(C)[C@H]3CC[C@]12C | SLC10A2 | transport efficiency, substrate, LC-MS/MS | ASBT-MDCK |  |  | normalized Jmax/Kt | 0.0203 µM⁻¹
COc1cccc(-c2c(C#N)c(N)nc(SCc3ncc[nH]3)c2C#N)c1 | ADORA1 | cAMP, agonist |  |  |  | Emax | 23%
CC1=C(/C=C/C=C\C=C\C(C)=C\C=O)C(C)(C)CCC1 | Rhodopsin (RHO, Homo sapiens, UniProt P08100, T289P) | immunoblot | 661W rod opsin T289P | 2.5 µM | relative to: mature over immature | mature over immature ratio | ~6
CC(=O)[C@H]1CC[C@H]2[C@@H]3CCC4=CC(=NOCC(=O)O)CC[C@]4(C)[C@H]3CC[C@]12C | T2, DNA aptamer | bead-ELAA |  | NaCl 100 mM |  | Kd | 0.0391 µM
N[C@@H](Cc1ccc(O)c(I)c1)C(=O)O | Iodotyrosine deiodinase (IYD, Thermotoga neapolitana, UniProt B9K712, M41K) | binding, FMN fluorescence quenching |  | 25 °C |  | Kd ratio, M41K over wild type | 22 fold
NC(=O)C1CCNC(=O)C(CCCNC(=O)c2cnccn2)NC(=O)C(Cc2ccco2)NC(=O)C(CC2CC2)NC(=O)C=CC(=O)N1 (centres unmarked) | MAPKAPK2 (Homo sapiens, UniProt P49137) | DNA-templated library selection |  | one selection round |  | enrichment factor | 2.8
CCCCCCCCO[C@@H]1O[C@H](CO)[C@H](O)[C@H](O)[C@H]1O[C@@H]1O[C@@H](C)[C@@H](O)[C@@H](O)[C@@H]1O | ABO G235S/G268A/L266M/R176G | methyl-TROSY NMR titration lineshape analysis |  | apo enzyme |  | koff | 3100 ± 300 s⁻¹
CNc1ccccc1C(=O)O[C@H]1C[C@H](n2cnc3c(N)ncnc32)O[C@@H]1COP(=O)(O)OP(=O)(O)O | Unconventional myosin-Va (Gallus gallus, UniProt Q02440, D297C/G292C/I296C/S293C/V295G) | stopped-flow FRET |  | together with: 4 mM EDTA | relative to: with Mg | dissociation rate, fast phase | ~10 fold
O=Cc1ccc(-c2cn([C@@H]3O[C@H](COP(=O)(O)OP(=O)(O)O[C@H]4O[C@H](CO)[C@H](O)[C@H](O)[C@H]4O)[C@@H](O)[C@H]3O)c(=O)[nH]c2=O)s1 | ABO (Homo sapiens, UniProt P16442, G268A/L266G) | galactosyltransferase activity, substrate, HPLC |  |  |  | Km | < 0.4 µM
CC/C(=C(\c1ccc(O)cc1)c1ccc(OCCN(C)CCOCCOCCOCCN(C)CCOc2ccc(/C(=C(/CC)c3ccccc3)c3ccc(O)cc3)cc2)cc1)c1ccccc1 | ESR2 (Homo sapiens, UniProt Q92731) | radioligand competition binding |  | concentration not given, Z-Z/Z isomer form, together with: [3H]estradiol tracer | relative to: estradiol | relative binding affinity | 13.9%
C=CCNC(=O)NC1CC=C(c2cc3c(Nc4cc5ncsc5cc4F)ncnc3s2)CC1 (racemic) | RIPK1 (Homo sapiens, UniProt Q13546) | enzyme activity |  | 1 µM | relative to: untreated | remaining activity | 102 ± 3%
O=C1C(=O)c2cccnc2-c2ncccc21 | TAS2R5 (Homo sapiens, UniProt Q9NYW4) | intracellular calcium, agonist | D9 cells expressing TAS2R5 |  |  | log(Emax/EC50) | 8.2
CCNC(=O)[C@H]1O[C@@H](n2cnc3c(NCCCNC(=O)CCCCCNC(=O)COc4ccc(/C=C/C5=[N+]6C(=Cc7ccc(-c8cccs8)n7[B-]6(F)F)C=C5)cc4)ncnc32)[C@H](O)[C@@H]1O | ADORA1 | radioligand binding, whole-cell binding | CHO-A1 | 2 h, together with: [3H]DPCPX | relative to: specific binding, 10 µM XAC | maximal inhibition | 55.4 ± 2.5%
CCCCOc1ccc(C(=O)OCC[N+]2(C)CC=CCC2)cc1 (centres unmarked) | CHRM1 (Homo sapiens, UniProt P11229) | antagonist, refers to: inositol phosphates | CHO | M1, together with: carbachol |  | cooperativity factor | 0.001 ± 0.0002
C=CCCCCCCO[C@@H]1O[C@H](CO)[C@H](O)[C@H](O[C@@H]2O[C@H](CO)[C@H](O)[C@H](O)[C@H]2O[C@@H]2O[C@@H](C)[C@@H](O)[C@@H](O)[C@@H]2O)[C@H]1O | ABO G235S/G268A/L266M/R176G | methyl-TROSY NMR titration lineshape analysis |  | apo enzyme |  | koff | 2600 ± 200 s⁻¹

Repeated from above:
SMILES | target | assay | system | setting | how to read | measurement | result
CN1CCN(CC(=O)N2N=C3/C(=C/c4ccccc4)CCCC3C2c2ccccc2)CC1 (mixture of isomers) | ALOX5 (Homo sapiens, UniProt P09917) | activator |  | 20 µM, together with: arachidonic acid | relative to: activator 0 µM | enzyme activity | 91.3%
O=c1[nH]cnc2c(CN3C[C@H](O)[C@@H](O)C3)c[nH]c12 | PNP (Homo sapiens, UniProt P00491) | isothermal titration calorimetry |  | concentration not given, pH 7.4, 27 °C, first subunit, together with: 50 mM phosphate |  | binding enthalpy | -8.6 ± 1 kcal/mol
C[C@H](CCC(=O)N[C@@H](CCC(=O)Nc1cncc(Br)c1)C(=O)O)[C@H]1CC[C@H]2[C@@H]3[C@H](O)C[C@@H]4C[C@H](O)CC[C@]4(C)[C@H]3CC[C@]12C | SLC10A2 | transport efficiency, substrate, LC-MS/MS | ASBT-MDCK |  |  | normalized Jmax/Kt | 0.0203 µM⁻¹
